Measurements gathered from unrelated publications.
A part holds a random share of what one study measured.

Block 1 — technique: protein binding microarray; molecule type: double-stranded DNA, one strand shown; sample: in vitro; tested at: not given; relative to: not given; direction: higher = stronger binding; endpoint: E-score
Target: Histone acetyltransferase KAT6A, both winged helices, GST fusion (KAT6A, Homo sapiens, UniProt Q92794, residues 1-181)
Setting: 8-mer, flanks averaged, mean of 2 arrays, mostly near background
Target sequence (chain): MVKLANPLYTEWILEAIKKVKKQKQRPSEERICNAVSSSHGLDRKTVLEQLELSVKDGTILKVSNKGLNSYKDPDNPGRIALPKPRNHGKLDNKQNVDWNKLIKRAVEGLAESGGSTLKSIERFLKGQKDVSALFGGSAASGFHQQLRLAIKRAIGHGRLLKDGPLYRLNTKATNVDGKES
ATCTGGAC: -0.0965
TCATACCA: -0.0865
CAATTAGG: -0.155
CGCGAGAA: 0.193
ACTCAAAG: -0.0419

Block 2 — technique: RNA Bind-n-Seq; molecule type: RNA; sample: in vitro; tested at: 1 µM; setting: whole 134-nt RNA, ends assumed; together with: 150 mM KCl; relative to: input library; direction: higher = stronger binding; endpoint: log2 enrichment
Target: Ras GTPase-activating protein-binding protein 1, RRM domain (G3BP1, Homo sapiens, UniProt Q13283)
Sequence of UniProt Q13283 (whole entry, looked up): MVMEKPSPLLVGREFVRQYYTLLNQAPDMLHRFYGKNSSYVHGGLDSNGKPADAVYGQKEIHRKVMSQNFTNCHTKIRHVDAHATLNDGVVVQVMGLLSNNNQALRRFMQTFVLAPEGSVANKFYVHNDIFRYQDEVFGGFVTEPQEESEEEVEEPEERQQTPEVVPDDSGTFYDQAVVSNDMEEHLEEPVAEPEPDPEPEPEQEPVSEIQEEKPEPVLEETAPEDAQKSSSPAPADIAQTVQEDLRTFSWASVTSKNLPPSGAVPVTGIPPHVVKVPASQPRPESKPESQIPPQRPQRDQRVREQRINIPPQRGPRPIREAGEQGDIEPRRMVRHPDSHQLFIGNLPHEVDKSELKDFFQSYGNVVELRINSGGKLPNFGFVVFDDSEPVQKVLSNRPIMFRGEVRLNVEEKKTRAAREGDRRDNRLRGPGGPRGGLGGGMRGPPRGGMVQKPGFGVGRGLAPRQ
GGGAGUUCUACAGUCCGACGAUCUGGCCCUGGUGGCAUGCGGGGAGGAAGAGGUGGCCUCAUGGAUCGUGGUGGACCCGGUGGAAUGUUCAGAGGUGGCCGUGGUGGAGACAGUGGAAUUCUCGGGUGUCAAGG: 0.754
GGGAGUUCUACAGUCCGACGAUCAAGUCCUGUGCUACACAUCGUAUGUACCGAAUCGGGUUUGGGUUUGGGGUUUGGGGAAAGUAUUAUGUUACGCCGUUCGGAUCUGCACUUUGGAAUUCUCGGGUGUCAAGG: 0.701
GGGAGUUCUACAGUCCGACGAUCGCCACCAUGCCCACCUAGUUUUUGCAUUUUUAGUGGAGGUGUGGUUUCACUGUGUUGGCCAGGCUGGUCUCUUAACUCCUGACCUCAGGUUGGAAUUCUCGGGUGUCAAGG: -0.0507

Block 3 — technique: protein-binding microarray; molecule type: double-stranded DNA, one strand shown; sample: in vitro; tested at: 2200 nM top; setting: 60-bp whole probe; together with: salmon DNA 0.4 mg/ml; relative to: random background probes; direction: higher = stronger binding; endpoint: fitted relative affinity
Target: Interferon regulatory factor 7, full length, phosphomimetic (IRF7, Homo sapiens, UniProt Q92985, residues 1-503, S471D/S472D/S475D/S476D/S477D/S483D/S484D/S487D)
Target sequence (chain): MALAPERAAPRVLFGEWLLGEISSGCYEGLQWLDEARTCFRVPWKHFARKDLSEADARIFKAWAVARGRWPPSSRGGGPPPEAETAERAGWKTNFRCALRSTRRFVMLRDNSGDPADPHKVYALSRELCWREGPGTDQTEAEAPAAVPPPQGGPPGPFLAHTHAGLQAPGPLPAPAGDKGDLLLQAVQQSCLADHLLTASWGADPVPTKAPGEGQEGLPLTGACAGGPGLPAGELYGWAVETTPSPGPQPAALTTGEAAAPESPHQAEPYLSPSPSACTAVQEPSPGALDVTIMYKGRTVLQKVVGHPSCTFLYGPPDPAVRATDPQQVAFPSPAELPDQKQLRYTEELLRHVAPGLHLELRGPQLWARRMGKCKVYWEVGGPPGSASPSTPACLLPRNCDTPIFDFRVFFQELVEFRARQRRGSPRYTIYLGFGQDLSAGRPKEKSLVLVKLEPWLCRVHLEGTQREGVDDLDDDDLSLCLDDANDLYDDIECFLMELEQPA
GCCTAGCACTTTCATTGCTGCCCTCAGAAAGTGCTAGTCTTGATTCGCTTGACGCTGCTG: 2.89 z-score
GCCTAGCACTATGGTATTTTTTTGTAATCGTGCTAGGTCTTGATTCGCTTGACGCTGCTG: 0.974 z-score
GCCTAGCACTCCCTTTCAGTTTTCCTATGGTGCTAGGTCTTGATTCGCTTGACGCTGCTG: 5.26 z-score
GCCTAGCACAACTCTTTGCAGATAAATACGTGCTAGGTCTTGATTCGCTTGACGCTGCTG: 0.26 z-score

Mixed results
PhoQ, residues 284 288 289 292 302 303 TLMATV  fold induction (PhoP, residues 12 14 15 18 19 IFFTR (Escherichia coli, UniProt P23836); Sort-seq, refers to: YFP reporter; E. coli; PhoQ-PhoP variant library, together with: 10 µM Mg2+; relative to: high Mg2+ state, higher = stronger signaling): 1.21

For quick reference, copied from above (block 1):
TCATACCA: -0.0865
ATCTGGAC: -0.0965
